Published values pooled from the literature.
Several values in a cell are separate wells, animals, samples, runs or records.
Target: Hepatocyte growth factor receptor (MET, Homo sapiens, UniProt P08581)
Chain of UniProt P08581 (whole entry, looked up): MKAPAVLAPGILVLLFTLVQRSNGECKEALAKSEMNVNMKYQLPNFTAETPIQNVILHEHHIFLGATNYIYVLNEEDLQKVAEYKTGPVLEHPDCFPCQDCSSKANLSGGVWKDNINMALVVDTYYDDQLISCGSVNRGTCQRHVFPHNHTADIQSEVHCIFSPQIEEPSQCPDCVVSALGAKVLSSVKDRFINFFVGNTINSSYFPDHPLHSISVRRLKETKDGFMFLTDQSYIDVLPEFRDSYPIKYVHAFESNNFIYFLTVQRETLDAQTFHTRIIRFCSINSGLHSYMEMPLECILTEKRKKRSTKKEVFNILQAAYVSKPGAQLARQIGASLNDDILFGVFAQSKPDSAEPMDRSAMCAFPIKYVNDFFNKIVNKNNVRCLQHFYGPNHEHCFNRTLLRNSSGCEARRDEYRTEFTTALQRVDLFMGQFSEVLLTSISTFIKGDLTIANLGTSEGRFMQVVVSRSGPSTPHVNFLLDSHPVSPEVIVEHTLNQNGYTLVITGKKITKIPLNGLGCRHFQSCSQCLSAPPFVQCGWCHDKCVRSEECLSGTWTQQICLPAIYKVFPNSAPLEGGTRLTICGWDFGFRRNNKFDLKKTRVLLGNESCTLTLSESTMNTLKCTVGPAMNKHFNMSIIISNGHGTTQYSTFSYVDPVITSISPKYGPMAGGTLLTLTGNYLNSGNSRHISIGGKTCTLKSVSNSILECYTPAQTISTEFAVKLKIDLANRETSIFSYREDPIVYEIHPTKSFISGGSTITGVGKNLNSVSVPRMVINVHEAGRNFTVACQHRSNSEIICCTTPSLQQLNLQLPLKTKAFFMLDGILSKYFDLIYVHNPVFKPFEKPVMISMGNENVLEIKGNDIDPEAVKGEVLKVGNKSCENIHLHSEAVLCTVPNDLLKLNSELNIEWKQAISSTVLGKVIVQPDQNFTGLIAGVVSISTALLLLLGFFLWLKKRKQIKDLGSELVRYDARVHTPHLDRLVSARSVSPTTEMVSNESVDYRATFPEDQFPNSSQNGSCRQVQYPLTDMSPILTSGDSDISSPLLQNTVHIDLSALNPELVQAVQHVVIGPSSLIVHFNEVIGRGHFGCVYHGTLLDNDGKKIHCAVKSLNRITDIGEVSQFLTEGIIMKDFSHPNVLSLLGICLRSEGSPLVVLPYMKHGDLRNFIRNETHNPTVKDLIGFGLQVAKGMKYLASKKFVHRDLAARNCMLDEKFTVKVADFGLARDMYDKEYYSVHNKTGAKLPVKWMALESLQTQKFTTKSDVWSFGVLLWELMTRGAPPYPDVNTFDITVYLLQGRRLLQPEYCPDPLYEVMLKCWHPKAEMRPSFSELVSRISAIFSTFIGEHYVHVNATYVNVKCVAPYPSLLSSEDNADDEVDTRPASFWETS

Compound = COc1ccc(O)cc1-c1c[nH]c2ncc(-c3cncc(C(=O)N(C)C)c3)cc12; assay = binding, competition with immobilised ligand; setting = 0.2 µM; endpoint = inhibition; result = 11.8%
Compound = COc1c(OCCCN2CCOCC2)ccc2c1N=C(NC(=O)c1cnc(N)nc1)N1CCN=C21; assay = kinase activity, inhibitor; setting = 1 µM; scale = baseline: untreated control; endpoint = remaining activity; result = 117%
Compound = NC(=O)[C@@H](O)C[C@H]1CCc2sc3ncnc(O[C@H]4CC[C@H](N5CCOCC5)CC4)c3c21; assay = enzyme activity, inhibitor; setting = 10 µM; endpoint = inhibition; result = -6%
Compound = C=CC(=O)Nc1cccc(-c2cnc3[nH]cc(C(=O)NC(C)(C)C)c3n2)c1; assay = kinase activity; setting = 0.1 µM; endpoint = inhibition; result = 6% and 5%
Compound = CCn1cc(C(=O)O)c(=O)c2c(N)c(F)c(NC3CCCCC3)cc21; assay = kinase activity; setting = 0.1 µM, added: ATP at Km; endpoint = inhibition; result = 1.2%
Compound = Cc1cccc(O[C@H]2CCC[C@@H](C(C)CNCc3ccncc3)C2)c1 (relative stereo); assay = kinase activity, kinome panel screening; setting = 1 µM; endpoint = inhibition; result = -1%
Compound = Cc1cnc2nc1Nc1cccc(c1)COC/C=C/COCc1cc(ccc1OCCN1CCOCC1)N2; setting = concentration not given; endpoint = percent of control; result = 72%
Compound = O=C=[N][Ru-4]123([n]4c5ccc(O)cc5c5c6c(c7cc(F)c[n+]1c7c54)C(=O)NC6=O)[S+]1CC[S+]2CC[S+]3CC1 (centres unmarked); assay = enzyme activity; setting = 100 nM, human enzyme, added: 10 µM ATP; scale = baseline: untreated; endpoint = remaining activity; result = 132%
Compound = COCC12C(=O)NC3C4(C(OC)CC1O)C1CC5(O)C(OC)C(O)C(OC(C)=O)(C1C5OC(=O)c1ccccc1)C3(O)C(OC)C24 (centres unmarked); assay = kinase activity, inhibitor, ProQinase kinase profiling; setting = 25 µM; scale = baseline: control; endpoint = remaining activity; result = 105% and 100%
Compound = C[C@H]1CN(C(=O)c2cn(-c3ccnc(N)n3)c3cc(C#CC4(O)CCCCC4)ccc23)CCN1; assay = enzyme activity, inhibitor, FRET; setting = 1 µM; endpoint = inhibition; result = 4%
Compound = O=C(Nc1ccc(Oc2ncnc3[nH]cc(-c4ccccc4)c23)c(F)c1)c1c2n(n(-c3cc(F)ccc3F)c1=O)CCCC2; assay = enzyme activity, inhibitor; setting = 0.5 µM; endpoint = inhibition; result = 94%

Repeated from above:
Compound = Cc1cccc(O[C@H]2CCC[C@@H](C(C)CNCc3ccncc3)C2)c1 (relative stereo); assay = kinase activity, kinome panel screening; setting = 1 µM; endpoint = inhibition; result = -1%
Compound = COc1ccc(O)cc1-c1c[nH]c2ncc(-c3cncc(C(=O)N(C)C)c3)cc12; assay = binding, competition with immobilised ligand; setting = 0.2 µM; endpoint = inhibition; result = 11.8%
